Results of several laboratories.
Every numbered part comes from another study and shows a few of its results, in no order. Positions count from the first letter of the parent shown.
UniProt Q9FGV1, sequence (whole entry, looked up): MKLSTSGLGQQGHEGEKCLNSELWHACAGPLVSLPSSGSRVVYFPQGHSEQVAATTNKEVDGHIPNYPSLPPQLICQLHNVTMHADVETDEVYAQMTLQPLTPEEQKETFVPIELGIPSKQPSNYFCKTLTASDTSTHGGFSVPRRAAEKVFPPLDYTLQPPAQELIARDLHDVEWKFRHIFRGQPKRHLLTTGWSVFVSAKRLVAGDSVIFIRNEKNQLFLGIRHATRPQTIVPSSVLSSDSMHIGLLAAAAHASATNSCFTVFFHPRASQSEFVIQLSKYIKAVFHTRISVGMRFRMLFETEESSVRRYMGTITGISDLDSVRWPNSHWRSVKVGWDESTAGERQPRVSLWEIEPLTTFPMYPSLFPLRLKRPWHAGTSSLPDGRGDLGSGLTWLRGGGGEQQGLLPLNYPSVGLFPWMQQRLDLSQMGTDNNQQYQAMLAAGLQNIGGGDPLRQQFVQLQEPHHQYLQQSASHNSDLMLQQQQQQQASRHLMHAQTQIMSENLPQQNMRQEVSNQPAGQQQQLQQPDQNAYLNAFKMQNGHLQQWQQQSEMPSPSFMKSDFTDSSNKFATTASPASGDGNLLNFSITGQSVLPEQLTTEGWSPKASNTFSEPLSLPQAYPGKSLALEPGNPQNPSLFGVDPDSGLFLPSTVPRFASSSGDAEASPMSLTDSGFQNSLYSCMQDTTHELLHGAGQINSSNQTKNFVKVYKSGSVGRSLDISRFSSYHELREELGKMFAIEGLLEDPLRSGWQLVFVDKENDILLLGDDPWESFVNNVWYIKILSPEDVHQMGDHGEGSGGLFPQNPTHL
UniProt O23661, sequence (whole entry, looked up): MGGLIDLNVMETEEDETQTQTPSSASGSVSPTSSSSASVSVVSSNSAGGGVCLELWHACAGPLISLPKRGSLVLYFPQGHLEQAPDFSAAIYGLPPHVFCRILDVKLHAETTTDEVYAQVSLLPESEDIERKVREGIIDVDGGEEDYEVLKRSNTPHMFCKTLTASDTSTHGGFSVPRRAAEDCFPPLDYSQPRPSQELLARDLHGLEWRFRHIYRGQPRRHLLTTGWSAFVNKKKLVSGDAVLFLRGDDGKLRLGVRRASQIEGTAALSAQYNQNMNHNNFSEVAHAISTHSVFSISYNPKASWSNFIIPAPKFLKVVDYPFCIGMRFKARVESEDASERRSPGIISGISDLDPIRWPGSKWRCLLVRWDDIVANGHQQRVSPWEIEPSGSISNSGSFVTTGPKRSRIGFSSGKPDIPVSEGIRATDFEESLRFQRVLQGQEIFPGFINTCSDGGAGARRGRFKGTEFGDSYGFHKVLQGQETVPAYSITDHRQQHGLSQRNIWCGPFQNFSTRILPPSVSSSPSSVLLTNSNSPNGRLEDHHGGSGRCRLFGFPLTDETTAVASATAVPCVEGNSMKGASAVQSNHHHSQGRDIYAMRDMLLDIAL

Study 1 — method: protein binding microarray; molecule type: double-stranded DNA, one strand shown; sample: in vitro; concentration: not given; baseline: not given; reading: higher = stronger binding
Target: Histone acetyltransferase KAT6A, both winged helices, GST fusion (KAT6A, Homo sapiens, UniProt Q92794, residues 1-181)
Setting: 8-mer, flanks averaged, mean of 2 arrays, mostly near background
Construct (chain): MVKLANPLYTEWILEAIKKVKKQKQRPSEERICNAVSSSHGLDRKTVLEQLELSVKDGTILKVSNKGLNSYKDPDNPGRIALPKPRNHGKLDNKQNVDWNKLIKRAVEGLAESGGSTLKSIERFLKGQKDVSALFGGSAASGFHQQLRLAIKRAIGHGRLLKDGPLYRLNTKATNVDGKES
Sequence	E-score
ACTTCAGA	-0.00095
ACGGGGTC	0.271
AACATTCC	-0.00741
CCTTCCCC	-0.198
ACGAGGCG	0.0839
AAGGAAAA	-0.11
CGGGAACC	0.229
GGGAGTGA	-0.0927
CTTAACCC	-0.0936
AAGATACC	0.0383
CCGACTAC	0.192
TAAGATTA	-0.0685
AAGCTCGC	0.0315
CATCGAAC	-0.0179
GTTGGATA	-0.125
CGACACCG	0.248
CCCATAAA	-0.116
ATGCCGCG	0.369
GATTACAA	-0.00431
AAGTTGTG	-0.179
GTTCCTTA	-0.0645
CATGCGCG	0.33
CTTTCAAC	-0.0384
AATGTACC	-0.0131
GTGAATGA	-0.0896

Study 2 — method: RNA Bind-n-Seq; molecule type: RNA; sample: in vitro; concentration: not given; setting: RNA with constant flanks, ends assumed; baseline: input RNA pool; reading: higher = stronger binding
Target: RING finger protein unkempt homolog, zinc fingers 1-6, GST-SBP tag (UNK, Homo sapiens, UniProt Q9C0B0, residues 30-357)
Residues (chain): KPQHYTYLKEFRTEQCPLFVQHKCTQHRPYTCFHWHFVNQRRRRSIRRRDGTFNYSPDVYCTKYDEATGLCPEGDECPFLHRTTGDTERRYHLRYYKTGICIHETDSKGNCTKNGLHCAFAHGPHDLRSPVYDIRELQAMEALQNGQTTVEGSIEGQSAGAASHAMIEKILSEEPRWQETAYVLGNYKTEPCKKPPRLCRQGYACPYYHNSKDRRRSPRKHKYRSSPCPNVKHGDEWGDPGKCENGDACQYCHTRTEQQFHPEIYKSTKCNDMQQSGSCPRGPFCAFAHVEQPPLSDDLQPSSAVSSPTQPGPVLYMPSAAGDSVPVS
Sequence	bound/input enrichment [ratio]
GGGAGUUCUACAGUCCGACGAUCUUGGUCAUAUCAAACAUUAAAAAUGACCACUCUUUUAAUUGAAAUUAACUUUUAAAUGUUUACCGGAGUAUGUGCUGUGAAGUGAUCUAAAAUUUGUAAUAUUUUUGUCAUGAACUGUACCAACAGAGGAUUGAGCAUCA	0.237
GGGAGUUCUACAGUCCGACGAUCACUAAUGCAGUAAUUGCUGGGUUGAUAGUAUUGGAAGGAUUGAAGAUUUUAUCAGGAAAAACCGACCAGUGCAGAACAAUUUUUUUGAAUAAACAACCAAACCCAAGAAAGAAGCUUCUUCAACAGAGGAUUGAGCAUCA	0.119
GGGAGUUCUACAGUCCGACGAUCGCAGCCCUGUCUGUUCGAAAUCUCUCUCCUUAUGUUUCCAACGAACUUUUGGAAGAGGCCUUCCGCCAGUUUGGUCCUAUUGAAAGGGCUGUUGUAAUUGUGGAUGAUCGCGGAAGAUCUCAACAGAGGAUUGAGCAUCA	0.173
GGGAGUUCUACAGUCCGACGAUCCCACAUUAGCACCCUGCCAGCCUACCAGCCUCUCUGUGCACAGCUUCUAAUGUUAUGAUCCCGCCCGAUUUUUAUUUAAAAUAUGAAAAACUGCUUUUCCCAAGACGUUUUUUAAAAGGACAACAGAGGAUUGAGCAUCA	1.18
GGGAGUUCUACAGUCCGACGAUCGGCAUUGCCCUUGACCAUCUUGGUCGAACCAUCUUCUGGACGGACUCUCAGUUGGAUCGAACCGAAGUUGCAAAGAUGGAUGGCACCCAGCGCCGAGUGCUGUUUGACACGGGUUUGGUGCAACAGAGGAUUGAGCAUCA	0.0794
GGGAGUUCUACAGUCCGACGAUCGGCUUUAUUUUGUGCCAUGGGAUCCUAAAUACUGACGCUACAGCACUGAACCUUUGGAAACCCGCUCUUCAAAGUAGCUCUUGCCUCUCUCUCUUUCGGGAUGAAGUUUUCCACAUUCACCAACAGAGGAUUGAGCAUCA	0.125
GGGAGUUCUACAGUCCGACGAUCUGAAGAUGAUGUAAAUAAGCAAAGUUCAGUUAGAAAGAACUCACAAAAACAAAUAAAAAACCGCAGUCUCCUUUCUUUUGACAGUGAAGAUGAAAAUGAGUAAAUAUGAAUAUUGUGGACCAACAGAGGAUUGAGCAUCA	0.367
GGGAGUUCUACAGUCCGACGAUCAUUUAUCUGUAUGAAAUUCCAGCAGUUAAUUUGAACGUUUAUGUAUAGGAUGUUUGUAUUCUCCGGUCUUUACUACAGUGUUUCUACCUCUCAUUUGUAACUGCAUUAUCUUCAAAAUAGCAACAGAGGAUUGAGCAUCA	1.24
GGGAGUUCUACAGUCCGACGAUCCACGUACAGCCCUGAAUGCAGGUGCAGUUUGGGUUUUUUGUUUUGUUUUGUUUUGUUUUAUCCGCCAGUGGGCAAAGUGAAAUGUAAUUUUGGGUAAGCCAGGGCUACUUUAGCUUUUCUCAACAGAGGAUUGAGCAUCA	0.495
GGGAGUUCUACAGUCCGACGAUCCUCUCCAGUUCCAAGGACUCGUAUACAGCUCCCAUUUAUAAUUUUGCCCUUAUUUUUAAGUCCGGAAAUAAUGAUUAACUUAUGAAUAAAUAGUAUGGGGCAAGAGUGGGAUUUCUUCCGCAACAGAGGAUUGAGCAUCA	0.438
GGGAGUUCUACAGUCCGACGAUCUGUGAAAUCAGUAGGUUAUCUUUAAUCUUUACACUACAUGCAGAUCCAUAGUAUCCUUUGCCGUGUUGUAAAUACUUUUGCUUUGAAAACUUUUUCAUUGUCCUAAAUCACCCUGACUCUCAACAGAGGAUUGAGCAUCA	0.471

Study 3 — target: CCNB2, cyclin fold, Cln2 fusion (human); method: yeast growth competition, sequencing; sample: yeast; setting: weak parent motif; baseline: not given; reading: higher = stronger binding
Starting sequence: TICRR docking peptide (human); TKVRRNLFNQELL
Change	normalised enrichment score
TKARRNLFNQELL [V3A]	-0.139
TKVARNLFNQELL [R4A]	-0.0704
TKVRRNLLNQELL [F8L]	0.623
TKVRRNLFNQALL [E11A]	0.512
TKVRRNLFNQEAL [L12A]	0.0557
AKVRRNLFNQELL [T1A]	0.586
TKVRKNLFNQELL [R5K]	0.601
TKVRANAFNQELL [R5A L7A]	0.167
TKVRANLFNQELL [R5A]	0.701
TKVRRNLFNQELA [L13A]	0.698

Study 4 — target: UBE2Q1 UBC core domain (UniProt Q7Z7E8); method: yeast two-hybrid; sample: yeast; setting: mostly zero background; baseline: not given; reading: higher = stronger interaction
B1: ZNRF4 RING domain (UniProt Q8WWF5); chain VRTFTWHNDLCAICLDEYEEGDQLKILPCSHTYHCKCIDPWFSQAPRRSCPVCKQSVAATEDSF
B2: VPS8 RING domain (UniProt Q8N3P4); chain TRGLNPKQDYCSICLQQYKRRQEMADEIIVFSCGHLYHSFCLQNKECTVEFEGQTRWTCYKCSSSNKVGKLSE
B3: MID2 RING domain (UniProt Q9UJV3); chain KMETLESELTCPICLELFEDPLLLPCAHSLCFSCAHRILVSSCSSGESIEPITAFQCPTCRYVISLNHRGL
B4: NFX1 RING domain (UniProt Q12986); chain IEQLTTEKYECMVCCELVRVTAPVWSCQSCYHVFHLNCIKKWARSPASQADGQSGWRCPACQNVSAHVPNTY
B5: CNOT4 RING domain (UniProt O95628); chain MSRSPDAKEDPVECPLCMEPLEIDDINFFPCTCGYQICRFCWHRIRTDENGLCPACRKPYPED
B6: TRIM41 RING domain (UniProt Q8WV44); chain PVQTLQEEAVCAICLDYFTDPVSIGCGHNFCRVCVTQLWGGEDEEDRDELDREEEEEDGEEE
B7: BFAR RING domain (UniProt Q9NZS9); chain GPQISVSEFSCHCCYDILVNPTTLNCGHSFCRHCLALWWASSKKTECPECREKWEGFPKVS
B8: MARCHF1 RING domain (UniProt Q8TCQ1); chain TAPRSQSRLSVCPSTQDICRICHCEGDEESPLITPCRCTGTLRFVHQSCLHQWIKSSDTRCCELCKYDFIMETKLKPLRKWE
B9: RING1 RING domain (UniProt Q06587); chain SPRSLHSELMCPICLDMLKNTMTTKECLHRFCSDCIVTALRSGNKECPTCRKKLVSKRSLR
B10: RNF6 RING domain (UniProt Q9Y252); chain NSIDSELGKICSVCISDYVTGNKLRQLPCMHEFHIHCIDRWLSENCTCPICRQPVLGSNIAN
B11: RNF103 RING domain (UniProt O00237); chain WPADMLHCTECVVCLENFENGCLLMGLPCGHVFHQNCIVMWLAGGRHCCPVCRWPSYKKKQPY
B12: MKRN3 RING domain (UniProt Q13064); chain FAVQRGMDKVCGICMEVVYEKANPNDRRFGILSNCNHSFCIRCIRRWRSARQFENRIVKSCPQCRVTSELVIPSE
B13: RNF186 RING domain (UniProt Q9NXI6); chain HSGSTECDLECLVCREPYSCPRLPKLLACQHAFCAICLKLLLCVQDNTWSITCPLCRKVTAVPGGLI
Residues (chain): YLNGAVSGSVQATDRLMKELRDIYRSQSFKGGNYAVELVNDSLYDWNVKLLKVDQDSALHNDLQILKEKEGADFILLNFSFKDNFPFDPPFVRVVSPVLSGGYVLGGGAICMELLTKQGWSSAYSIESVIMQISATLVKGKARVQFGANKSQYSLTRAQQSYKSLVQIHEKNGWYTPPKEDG
Molecule	lacZ reporter activity
B1 (ZNRF4 RING domain)	0
B2 (VPS8 RING domain)	0
FAEQPSVKLCCQLCCSVFKDPVITTCGHTFCRRCALKSEKCPVDNVKLTVVVNNI (TRAF7 RING domain (UniProt Q6Q0C0))	0
B3 (MID2 RING domain)	0
B4 (NFX1 RING domain)	0
ASEEEFQFLRCQQCQAEAKCPKLLPCLHTLCSGCLEASGMQCPICQAPWPLGADTP (PML RING domain (UniProt P29590))	0
B5 (CNOT4 RING domain)	0
B6 (TRIM41 RING domain)	0
B7 (BFAR RING domain)	0
B8 (MARCHF1 RING domain)	0
B9 (RING1 RING domain)	0
DDVLTKDAGECVICLEELLQGDTIARLPCLCIYHKSCIDSWFEVNRSCPEHPAD (ZNRF1 RING domain (UniProt Q8ND25))	0
B10 (RNF6 RING domain)	0
B11 (RNF103 RING domain)	0
B12 (MKRN3 RING domain)	0
B13 (RNF186 RING domain)	0

Study 5 — method: universal PBM; molecule type: double-stranded DNA, one strand shown; sample: in vitro; concentration: not given; reading: higher = stronger binding
Target: Sal-like protein 4, full length isoform B (SALL4, Homo sapiens, UniProt Q9UJQ4-2, residues 1-616)
Setting: 8-mer, flanks averaged, mean of replicates
Sequence	E-score
ACCGCTGA	-0.107
ATATTCCG	0.232
GGACCATA	-0.0949
AGATAACT	0.136
AGACTATC	0.0964
GTCCTCTA	-0.12
ACCCTCAG	-0.0266
CTTGAGCA	-0.0821
CGCTCGAC	-0.332
ATGACCCC	-0.0623
CGTTGAAG	-0.0473
CAAATCTA	0.256
ACAAGAAT	0.137
CCATATCA	0.248
AAGCCCTT	-0.0873
ACCACATC	-0.168
ATTGCTAC	0.232
ACTCTCAA	0.0994

Study 6 — method: DHFR PCA, deep sequencing; sample: yeast; with: (+)-ABA 2500 µM; baseline: wild-type fitted maximum; reading: higher = stronger binding
Target: ABI1, truncated, D143A, DHFR fusion (Arabidopsis thaliana)
Setting: methotrexate growth selection, single substitutions
Starting sequence: PYL1, truncated, DHFR fusion (Arabidopsis thaliana); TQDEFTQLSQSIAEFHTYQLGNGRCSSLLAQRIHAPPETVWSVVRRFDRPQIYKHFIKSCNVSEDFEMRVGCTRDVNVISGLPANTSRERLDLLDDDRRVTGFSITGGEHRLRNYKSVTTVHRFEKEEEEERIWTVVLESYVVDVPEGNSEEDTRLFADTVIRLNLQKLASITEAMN; partner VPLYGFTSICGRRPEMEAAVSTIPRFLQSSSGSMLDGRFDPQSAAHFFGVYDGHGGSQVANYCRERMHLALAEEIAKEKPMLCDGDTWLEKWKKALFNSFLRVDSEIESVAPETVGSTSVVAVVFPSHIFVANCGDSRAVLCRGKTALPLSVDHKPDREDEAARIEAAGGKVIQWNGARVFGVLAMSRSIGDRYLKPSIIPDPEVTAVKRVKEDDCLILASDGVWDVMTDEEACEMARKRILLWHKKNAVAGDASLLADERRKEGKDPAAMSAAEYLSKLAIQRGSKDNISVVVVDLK
Change	relative binding score [%]
S140I	0.0645
R49D	86.2
A175Q	97.7
I162C	87.8
V161W	65.7
R99V	59.5
H16W	37.9
V44S	53.9
R98W	87.3
A30P	86.6
R69E	90.7
H55W	88.4
T154A	92.9
I12E	77.4
E174K	90.2
M176D	104
T39L	98
V121A	66.5

Mixed results
Substance	partner	test	how to read	endpoint	result
ETT (Arabidopsis thaliana, UniProt O23661)	ARF8 699-811 (Arabidopsis thaliana, UniProt Q9FGV1)	two-hybrid	baseline: out of 4 tests, higher = firmer interaction	positive tests	0
